Assay results collected from several papers.
Compare with care: the assays were run in different laboratories.
Target: Serine/threonine-protein kinase Nek11 (NEK11, Homo sapiens, UniProt Q8NG66)

C=CC(=O)N1CCc2ccc(-n3c(=O)ccc4cnc5ccc(-c6cnn(C)c6)cc5c43)cc21
remaining binding (KINOMEscan; 1 µM; baseline: DMSO control): 100%

COc1c(Cl)cccc1Nc1c(-c2ccncc2C#C[C@@]2(C)CCCN2C(=O)/C=C/CN(C)C)[nH]c2c1C(=O)NCC2
remaining binding (binding, competition with immobilised ligand; 3 µM): 98%

COc1c(OCCCN2CCOCC2)ccc2c1N=C(NC(=O)c1cnc(N)nc1)N1CCN=C21
remaining activity (kinase activity, inhibitor; 1 µM; baseline: untreated control): 137%

C=CC(=O)N1CCCC(n2c(=O)c3ncccc3n(Cc3ccc(Oc4ccccc4)cc3)c2=O)C1 (stereo not shown)
remaining binding (cell-free assay, competition with immobilised ligand; 1 µM): 55%

COc1ccc(C(=O)/C=C/c2ccccc2-c2c[nH]c3ccc(C#N)cc23)c(O)c1
inhibition (enzyme activity, inhibitor; 20 µM): 20%

Cc1ccc(-c2c(/C=C(\C#N)C(=O)NC(C)C)n(CCCO)c3ncnc(N)c23)cc1
remaining binding (cell-free assay, competition with immobilised ligand; 1 µM): 73%

Cc1cnc2nc1Nc1cccc(c1)COC/C=C/COCc1cc(ccc1OCCN1CCOCC1)N2
remaining binding (binding; 0.1 µM): 93%

CN1C[C@@H](c2c[nH]c3cc(Br)ccc23)NC[C@@H]1c1c[nH]c2cc(Br)ccc12
remaining activity (enzyme activity, inhibitor; 10 µM): 106%

COc1cc(Nc2nccc(-c3cnn4nc(OC)ccc34)n2)cc(C(F)(F)F)c1
remaining binding (binding, competition with immobilised ligand; 1 µM): 94%

Nc1ncc2c(n1)-c1c([nH]c3ccc(C4=CCOCC4)cc13)CCC2
remaining binding (binding, competition with immobilised ligand; 1 µM): 100%

O=C=[N][Ru-4]123([n]4c5ccc(O)cc5c5c6c(c7cc(F)c[n+]1c7c54)C(=O)NC6=O)[S+]1CC[S+]2CC[S+]3CC1 (stereo not shown)
remaining activity (enzyme activity; 100 nM, human enzyme, together with: 10 µM ATP; baseline: untreated): 101%

CN1CC[C@@H](COc2cnc(C#N)cc2-c2ccn3nc(NC(=O)C4CC4)cc3c2)C1
inhibition (enzyme activity, inhibitor; 1 µM): 4%

NC(=O)[C@@H](O)C[C@H]1CCc2sc3ncnc(O[C@H]4CC[C@H](N5CCOCC5)CC4)c3c21
inhibition (enzyme activity, inhibitor; 10 µM): -1%
